# Experimental data collected from several papers.
# Each line is one published result; not all experiments were run side by side. Positions of bridges follow the written chain, without caps; N, C: chain ends. No end group written: not given here.
# RGS4 residues 52-end: RGS4 residues 52-end 52-205, Alexa Fluor 532 label (Homo sapiens, UniProt P49798)
# UniProt P49798, sequence (whole entry, unmodified, looked up): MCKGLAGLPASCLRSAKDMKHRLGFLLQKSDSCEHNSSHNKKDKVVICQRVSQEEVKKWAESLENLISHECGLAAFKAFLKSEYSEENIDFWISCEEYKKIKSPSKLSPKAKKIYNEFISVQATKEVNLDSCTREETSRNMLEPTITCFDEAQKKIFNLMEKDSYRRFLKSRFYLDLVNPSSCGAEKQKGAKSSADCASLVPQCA
# CNOT1/CNOT2/CNOT3/CNOT10/CNOT11/CNOT7/CNOT6/CNOT9 CCR4-NOT complex: CNOT1/CNOT2/CNOT3/CNOT10/CNOT11/CNOT7/CNOT6/CNOT9 CCR4-NOT complex 1-2376 (Homo sapiens)
# Rag1: Rag1 384-1008 (Mus musculus, UniProt P15919)
# UniProt P15919, sequence (whole entry, looked up): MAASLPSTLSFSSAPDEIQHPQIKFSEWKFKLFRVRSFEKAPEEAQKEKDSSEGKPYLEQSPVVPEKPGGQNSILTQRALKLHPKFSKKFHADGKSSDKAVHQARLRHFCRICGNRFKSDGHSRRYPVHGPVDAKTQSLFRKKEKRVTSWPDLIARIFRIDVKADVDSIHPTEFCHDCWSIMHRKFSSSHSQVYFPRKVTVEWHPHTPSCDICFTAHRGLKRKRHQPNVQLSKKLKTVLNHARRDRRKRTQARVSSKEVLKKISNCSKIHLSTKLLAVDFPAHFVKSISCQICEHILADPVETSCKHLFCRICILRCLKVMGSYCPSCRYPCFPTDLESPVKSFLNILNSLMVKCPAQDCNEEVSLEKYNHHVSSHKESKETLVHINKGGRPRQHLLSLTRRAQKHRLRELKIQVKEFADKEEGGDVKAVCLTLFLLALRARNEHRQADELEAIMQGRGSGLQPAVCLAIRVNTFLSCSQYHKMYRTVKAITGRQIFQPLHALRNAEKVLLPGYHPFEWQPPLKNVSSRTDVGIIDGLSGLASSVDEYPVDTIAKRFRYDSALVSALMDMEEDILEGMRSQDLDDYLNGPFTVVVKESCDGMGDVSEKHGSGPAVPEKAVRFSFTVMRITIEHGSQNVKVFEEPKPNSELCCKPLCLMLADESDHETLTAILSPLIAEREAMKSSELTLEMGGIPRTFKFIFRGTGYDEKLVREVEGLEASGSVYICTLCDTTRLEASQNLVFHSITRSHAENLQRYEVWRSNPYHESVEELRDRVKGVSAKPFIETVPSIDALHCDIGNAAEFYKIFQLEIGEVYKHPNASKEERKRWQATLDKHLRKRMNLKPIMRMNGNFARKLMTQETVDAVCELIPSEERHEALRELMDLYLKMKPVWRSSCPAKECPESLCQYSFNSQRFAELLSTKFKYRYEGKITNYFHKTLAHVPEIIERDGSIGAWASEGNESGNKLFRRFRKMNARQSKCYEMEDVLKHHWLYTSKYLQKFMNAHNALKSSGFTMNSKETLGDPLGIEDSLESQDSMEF
# RGS4 residues 19-end: RGS4 residues 19-end 19-205, Alexa Fluor 568 label (Rattus norvegicus, UniProt P49799)
# UniProt P49799, sequence (whole entry, unmodified, looked up): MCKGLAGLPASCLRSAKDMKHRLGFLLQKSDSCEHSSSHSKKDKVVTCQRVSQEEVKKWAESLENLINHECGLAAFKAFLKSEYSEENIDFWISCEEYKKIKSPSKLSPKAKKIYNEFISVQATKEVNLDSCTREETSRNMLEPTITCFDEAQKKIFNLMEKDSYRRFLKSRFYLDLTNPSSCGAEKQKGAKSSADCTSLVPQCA
# B1: ftsZ (Bacillus subtilis, UniProt P17865); sequence looked up; chain MLEFETNIDGLASIKVIGVGGGGNNAVNRMIENEVQGVEYIAVNTDAQALNLSKAEVKMQIGAKLTRGLGAGANPEVGKKAAEESKEQIEEALKGADMVFVTAGMGGGTGTGAAPVIAQIAKDLGALTVGVVTRPFTFEGRKRQLQAAGGISAMKEAVDTLIVIPNDRILEIVDKNTPMLEAFREADNVLRQGVQGISDLIATPGLINLDFADVKTIMSNKGSALMGIGIATGENRAAEAAKKAISSPLLEAAIDGAQGVLMNITGGTNLSLYEVQEAADIVASASDQDVNMIFGSVINENLKDEIVVTVIATGFIEQEKDVTKPQRPSLNQSIKTHNQSVPKREPKREEPQQQNTVSRHTSQPADDTLDIPTFLRNRNKRG
# B2: PPP1R15B 636-698 (Homo sapiens, UniProt Q5SWA1); chain VKRKKVTFLEEVTEYYISGDEDRKGPWEEFARDGCRFQKRIQETEDAIGYCLTFEHRERMFNR
# B3: UGT1A9 (Homo sapiens, UniProt O60656); chain GKLLVVPMDGSHWFTMRSVVEKLILRGHEVVVVMPEVSWQLGRSLNCTVKTYSTSYTLEDLDREFKAFAHAQWKAQVRSIYSLLMGSYNDIFDLFFSNCRSLFKDKKLVEYLKESSFDAVFLDPFDNCGLIVAKYFSLPSVVFARGILCHYLEEGAQCPAPLSYVPRILLGFSDAMTFKERVRNHIMHLEEHLLCHRFFKNALEIASEILQTPVTEYDLYSHTSIWLLRTDFVLDYPKPVMPNMIFIGGINCHQGKPLPMEFEAYINASGEHGIVVFSLGSMVSEIPEKKAMAIADALGKIPQTVLWRYTGTRPSNLANNTILVKWLPQNDLLGHPMTRAFITHAGSHGVYESICNGVPMVMMPLFGDQMDNAKRMETKGAGVTLNVLEMTSEDLENALKAVINDKSYKENIMRLSSLHKDRPVEPLDLAVFWVEFVMRHKGAPHLRPAAHDLTWYQYHSLDVIGFLLAVVLTVAFITFKCCAYGYRKCLGKKGRVKKAHKSKTH
# B4: pum 1091-1426 (Drosophila melanogaster, UniProt P25822-1); chain GRSRLLEDFRNQRYPNLQLRDLANHIVEFSQDQHGSRFIQQKLERATAAEKQMVFSEILAAAYSLMTDVFGNYVIQKFFEFGTPEQKNTLGMQVKGHVLQLALQMYGCRVIQKALESISPEQQQEIVHELDGHVLKCVKDQNGNHVVQKCIECVDPVALQFIINAFKGQVYSLSTHPYGCRVIQRILEHCTAEQTTPILDELHEHTEQLIQDQYGNYVIQHVLEHGKQEDKSILINSVRGKVLVLSQHKFASNVVEKCVTHATRGERTGLIDEVCTFNDNALHVMMKDQYANYVVQKMIDVSEPTQLKKLMTKIRPHMAALRKYTYGKHINAKLEK
# B5: SEC66 (Saccharomyces cerevisiae, UniProt P33754); glycosylated; lysines PEGylated; sequence looked up; chain MSEFNETKFSNNGTFFETEEPIVETKSISVYTPLIYVFILVVSLVMFASSYRKKQAKKISEQPSIFDENDAHDLYFQIKEMSENEKIHEKVLKAALLNRGAESVRRSLKLKELAPQINLLYKNGSIGEDYWKRFETEVKLIELEFKDTLQEAERLQPGWVQLFVMVCKEICFNQALSRRYQSILKRKEVCIKEWELKINNDGRLVN
# B6: ACAT1 (Homo sapiens, UniProt P24752); sequence looked up; chain VSKPTLKEVVIVSATRTPIGSFLGSLSLLPATKLGSIAIQGAIEKAGIPKEEVKEAYMGNVLQGGEGQAPTRQAVLGAGLPISTPCTTINKVCASGMKAIMMASQSLMCGHQDVMVAGGMESMSNVPYVMNRGSTPYGGVKLEDLIVKDGLTDVYNKIHMGSCAENTAKKLNIARNEQDAYAINSYTRSKAAWEAGKFGNEVIPVTVTVKGQPDVVVKEDEEYKRVDFSKVPKLKTVFQKENGTVTAANASTLNDGAAALVLMTADAAKRLNVTPLARIVAFADAAVEPIDFPIAPVYAASMVLKDVGLKKEDIAMWEVNEAFSLVVLANIKMLEIDPQKVNINGGAVSLGHPIGMSGARIVGHLTHALKQGEYGLASICNGGGGASAMLIQKL
# B7: glnB (Escherichia coli, UniProt P0A9Z1); sequence looked up; chain MKKIDAIIKPFKLDDVREALAEVGITGMTVTEVKGFGRQKGHTELYRGAEYMVDFLPKVKIEIVVPDDIVDTCVDTIIRTAQTGKIGDGKIFVFDVARVIRIRTGEEDDAAI
# B8: Rag2 1-387 (Mus musculus, UniProt P21784); sequence looked up; chain MSLQMVTVGHNIALIQPGFSLMNFDGQVFFFGQKGWPKRSCPTGVFHFDIKQNHLKLKPAIFSKDSCYLPPLRYPATCSYKGSIDSDKHQYIIHGGKTPNNELSDKIYIMSVACKNNKKVTFRCTEKDLVGDVPEPRYGHSIDVVYSRGKSMGVLFGGRSYMPSTQRTTEKWNSVADCLPHVFLIDFEFGCATSYILPELQDGLSFHVSIARNDTVYILGGHSLASNIRPANLYRIRVDLPLGTPAVNCTVLPGGISVSSAILTQTNNDEFVIVGGYQLENQKRMVCSLVSLGDNTIEISEMETPDWTSDIKHSKIWFGSNMGNGTIFLGIPGDNKQAMSEAFYFYTLRCSEEDLSEDQKIVSNSQTSTEDPGDSTPFEDSEEFCFS
# B9: pum 1-378 (Drosophila melanogaster, UniProt P25822-1); sequence looked up; chain MKFLGGNDDRNGRGGVGVGTDAIVGSRGGVSQDAADAAGAAAAAAVGYVFQQRPSPGGVGVGVGGVGGGVPGVGAVGSTLHEAAAAEYAAHFAQKQQQTRWACGDDGHGIDNPDKWKYNPPMNPANAAPGGPPGNGSNGGPGAIGTIGMGSGLGGGGGGGAGGGNNGGSGTNGGLHHQSMAAAAANMAAMQQAAALAKHNHMISQAAAAVAAQQQHQHPHQQHPQQQQQQQQAQNQGHPHHLMGGGNGLGNGNGLGIQHPGQQQQQQQQQQQQQHPGQYNANLLNHAAALGHMSSYAQSGGSMYDHHGGAMHPGMNGGMPKQQPLGPPGAGGPQDYVYMGGQTTVPMGAAMMPPQNQYMNSSAVAAANRNAAITTSTA
# UniProt O34894, sequence (whole entry, looked up): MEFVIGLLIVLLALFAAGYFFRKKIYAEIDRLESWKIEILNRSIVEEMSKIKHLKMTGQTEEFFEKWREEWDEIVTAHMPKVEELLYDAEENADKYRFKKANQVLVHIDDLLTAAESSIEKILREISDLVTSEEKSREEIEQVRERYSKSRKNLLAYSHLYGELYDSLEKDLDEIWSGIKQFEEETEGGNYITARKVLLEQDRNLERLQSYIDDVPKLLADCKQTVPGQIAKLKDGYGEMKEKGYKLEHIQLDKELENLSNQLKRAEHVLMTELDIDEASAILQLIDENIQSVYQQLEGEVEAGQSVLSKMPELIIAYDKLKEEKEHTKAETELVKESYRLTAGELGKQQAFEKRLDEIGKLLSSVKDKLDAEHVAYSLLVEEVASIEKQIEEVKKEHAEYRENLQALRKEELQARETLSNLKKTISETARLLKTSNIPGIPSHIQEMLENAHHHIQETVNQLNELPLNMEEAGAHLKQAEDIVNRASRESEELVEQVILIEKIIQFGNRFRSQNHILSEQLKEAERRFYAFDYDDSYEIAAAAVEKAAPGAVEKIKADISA
# UniProt O43264, sequence (whole entry, looked up): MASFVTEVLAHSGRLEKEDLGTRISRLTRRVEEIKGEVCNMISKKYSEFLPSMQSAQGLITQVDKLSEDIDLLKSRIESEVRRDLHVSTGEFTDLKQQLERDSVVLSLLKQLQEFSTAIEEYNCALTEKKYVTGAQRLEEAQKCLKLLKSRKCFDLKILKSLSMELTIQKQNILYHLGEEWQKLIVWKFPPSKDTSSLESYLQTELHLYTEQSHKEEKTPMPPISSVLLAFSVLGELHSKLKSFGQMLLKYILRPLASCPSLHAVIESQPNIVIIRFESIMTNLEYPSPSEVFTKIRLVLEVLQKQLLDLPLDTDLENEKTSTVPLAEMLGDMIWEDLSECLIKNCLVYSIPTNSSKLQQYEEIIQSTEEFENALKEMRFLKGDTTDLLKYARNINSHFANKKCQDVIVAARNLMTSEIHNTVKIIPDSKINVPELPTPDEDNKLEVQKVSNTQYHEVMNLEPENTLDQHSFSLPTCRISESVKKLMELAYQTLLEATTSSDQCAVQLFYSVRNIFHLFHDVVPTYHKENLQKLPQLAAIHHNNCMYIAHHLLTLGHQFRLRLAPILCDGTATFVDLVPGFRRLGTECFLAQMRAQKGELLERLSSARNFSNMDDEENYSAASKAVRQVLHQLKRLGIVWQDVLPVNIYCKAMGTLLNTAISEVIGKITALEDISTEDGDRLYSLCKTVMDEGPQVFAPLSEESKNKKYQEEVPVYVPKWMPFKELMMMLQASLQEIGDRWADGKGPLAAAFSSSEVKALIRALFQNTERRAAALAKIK
# UniProt P40013, sequence (whole entry, looked up): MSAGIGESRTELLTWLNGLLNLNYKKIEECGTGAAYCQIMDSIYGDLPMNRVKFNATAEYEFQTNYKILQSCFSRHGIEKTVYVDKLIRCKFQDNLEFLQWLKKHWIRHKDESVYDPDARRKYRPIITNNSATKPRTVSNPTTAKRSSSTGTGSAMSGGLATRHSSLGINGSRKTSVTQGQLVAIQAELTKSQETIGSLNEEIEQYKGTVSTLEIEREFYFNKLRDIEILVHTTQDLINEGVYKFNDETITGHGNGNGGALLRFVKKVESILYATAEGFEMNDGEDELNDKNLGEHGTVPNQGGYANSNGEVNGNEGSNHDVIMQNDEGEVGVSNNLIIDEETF
# UniProt P14906, sequence (whole entry, looked up): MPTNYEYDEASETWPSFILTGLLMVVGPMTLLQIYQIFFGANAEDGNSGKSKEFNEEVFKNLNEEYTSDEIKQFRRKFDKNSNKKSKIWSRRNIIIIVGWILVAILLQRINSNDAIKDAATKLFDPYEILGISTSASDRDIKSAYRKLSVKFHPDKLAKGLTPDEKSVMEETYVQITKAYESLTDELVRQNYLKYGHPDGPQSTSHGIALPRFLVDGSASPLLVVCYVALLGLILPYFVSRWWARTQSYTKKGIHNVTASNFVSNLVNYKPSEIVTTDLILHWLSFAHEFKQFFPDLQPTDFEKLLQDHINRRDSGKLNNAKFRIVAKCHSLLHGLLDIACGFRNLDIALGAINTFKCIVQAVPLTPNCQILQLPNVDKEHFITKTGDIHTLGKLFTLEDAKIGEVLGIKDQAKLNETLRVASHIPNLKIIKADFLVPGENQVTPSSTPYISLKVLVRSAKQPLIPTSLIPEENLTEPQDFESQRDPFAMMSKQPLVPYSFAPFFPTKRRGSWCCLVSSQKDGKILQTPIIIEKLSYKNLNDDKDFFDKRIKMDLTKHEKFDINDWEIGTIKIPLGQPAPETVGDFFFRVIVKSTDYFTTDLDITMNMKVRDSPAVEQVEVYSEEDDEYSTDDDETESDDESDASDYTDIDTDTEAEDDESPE
# UniProt P32526, sequence (whole entry, unmodified, looked up): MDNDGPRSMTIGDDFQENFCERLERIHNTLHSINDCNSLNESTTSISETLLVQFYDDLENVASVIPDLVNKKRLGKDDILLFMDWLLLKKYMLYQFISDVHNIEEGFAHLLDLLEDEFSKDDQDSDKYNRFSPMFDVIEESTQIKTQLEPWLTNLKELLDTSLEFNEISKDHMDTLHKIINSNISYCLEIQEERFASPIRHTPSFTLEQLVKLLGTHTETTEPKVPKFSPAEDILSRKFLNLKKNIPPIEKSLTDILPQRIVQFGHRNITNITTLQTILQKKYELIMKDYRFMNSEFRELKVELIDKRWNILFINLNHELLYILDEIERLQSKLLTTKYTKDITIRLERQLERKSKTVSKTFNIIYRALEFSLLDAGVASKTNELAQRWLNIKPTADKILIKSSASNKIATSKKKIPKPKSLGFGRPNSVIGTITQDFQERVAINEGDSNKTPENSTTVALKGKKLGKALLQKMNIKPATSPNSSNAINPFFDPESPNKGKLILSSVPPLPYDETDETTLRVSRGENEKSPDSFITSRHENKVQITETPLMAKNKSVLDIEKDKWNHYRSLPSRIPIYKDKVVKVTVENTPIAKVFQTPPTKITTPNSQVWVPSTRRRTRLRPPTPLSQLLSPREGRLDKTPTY
# UniProt P62136, sequence (whole entry, looked up): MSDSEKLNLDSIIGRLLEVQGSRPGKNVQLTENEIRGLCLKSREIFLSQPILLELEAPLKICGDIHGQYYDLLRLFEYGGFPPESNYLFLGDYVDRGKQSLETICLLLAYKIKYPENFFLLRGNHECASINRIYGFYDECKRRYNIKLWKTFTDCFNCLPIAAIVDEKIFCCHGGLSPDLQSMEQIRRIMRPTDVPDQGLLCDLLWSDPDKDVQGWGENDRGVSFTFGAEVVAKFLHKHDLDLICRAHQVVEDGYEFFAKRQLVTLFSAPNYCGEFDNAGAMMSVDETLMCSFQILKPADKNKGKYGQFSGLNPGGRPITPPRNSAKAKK
# UniProt Q57818, sequence (whole entry, looked up): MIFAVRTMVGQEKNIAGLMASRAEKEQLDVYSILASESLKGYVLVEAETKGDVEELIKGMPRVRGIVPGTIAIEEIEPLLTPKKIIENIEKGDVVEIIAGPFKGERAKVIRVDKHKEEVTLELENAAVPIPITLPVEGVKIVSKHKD
Substance,tested on,test,test system,setting,endpoint,result
Ac-LVCKGYCQ-NH2 (designed peptide; disulfide 3-7; SMILES CC(=O)N[C@@H](CC(C)C)C(=O)N[C@H](C(=O)N[C@H]1CSSC[C@@H](C(=O)N[C@@H](CCC(N)=O)C(N)=O)NC(=O)[C@H](Cc2ccc(O)cc2)NC(=O)CNC(=O)[C@H](CCCCN)NC1=O)C(C)C; N-acetyl/C-amide/cyclic disulfide Cys3-Cys7),RGS4 residues 52-end,flow cytometry,peptide,room temperature,binding,binds
B1 (ftsZ),"ezrA cytoplasmic domain 22-562 (Bacillus subtilis, UniProt O34894)",cross-linking,,,binding,binds
B2 (PPP1R15B 636-698),"PPP1CA 7-330 (Homo sapiens, UniProt P62136)",MST,,"pH 7.4, added: Mn2+ 2 mM",binding,binds
Ac-KLCHGYCH-NH2 (designed peptide; disulfide 3-7; SMILES CC(=O)N[C@@H](CCCCN)C(=O)N[C@@H](CC(C)C)C(=O)N[C@H]1CSSC[C@@H](C(=O)N[C@@H](Cc2c[nH]cn2)C(N)=O)NC(=O)[C@H](Cc2ccc(O)cc2)NC(=O)CNC(=O)[C@H](Cc2c[nH]cn2)NC1=O; N-acetyl/C-amide/cyclic disulfide Cys3-Cys7),RGS4 residues 52-end,flow cytometry,peptide,room temperature,binding,binds
"BIM1 (Saccharomyces cerevisiae, UniProt P40013)","KAR9 A196E/S197E/S332E/S429E/S496E (Saccharomyces cerevisiae, UniProt P32526)",fluorescence correlation spectroscopy,,"pH 7.5, NaCl 350 mM, phosphomimetic",binding,binds
B3 (UGT1A9),O=C(c1ccc(OCCN2CCCCC2)cc1)c1c(-c2ccc(O)cc2)sc2cc(O)ccc12,steady-state kinetics,,"pH 7.4, 37 °C",Vmax/Km,20 µL/min/mg
B4 (pum 1091-1426),CNOT1/CNOT2/CNOT3/CNOT10/CNOT11/CNOT7/CNOT6/CNOT9 CCR4-NOT complex,pull-down,,,binding,binds
YFCHQYL,,,"peptide, human polyclonal IgM RF MCC","concentration not given, 5 µg/mL mAb II-481 coated, added: RF at 50% max binding concentration",inhibition,14%
B5 (SEC66),"SEC63, PEGylated surface lysines (Saccharomyces cerevisiae, UniProt P14906)",cryo-EM,,,binding,binds
B6 (ACAT1),PDP1 GST fusion Y94F (UniProt Q9P0J1),pull-down,,phosphorylated partner,binding,binds
"ZW10 (Homo sapiens, UniProt O43264)","MAD1L1/MAD2L1, pS546 on MAD1 (Homo sapiens)",pull-down,,,binding,binds
B7 (glnB),"glnL (Escherichia coli, UniProt P0AFB5)","native gel, EMSA",,"pH 7.5, 4 °C, without ATP, added: ADP 0.5 mM, α-ketoglutarate 1 mM",binding,binds
"MRACLKCKYLTNDEICPICHSPTSENWIGLLIVINPEKSEIAKKAGIDIKGKYALSVKE (spt4 1-59 (Methanocaldococcus jannaschii, UniProt Q57839))","Spt5 NGN domain 1-82 (Methanocaldococcus jannaschii, UniProt Q57818)",crystal structure,,,binding,binds
B8 (Rag2 1-387),Rag1,EMSA,,mixed before DNA addition,binding,binds
"KHCYGFCK-NH2 (designed peptide; disulfide 3-7; also: on OBOC bead: half N-acetylated, half free N-terminus; C-amide, Cys3-Cys7 disulfide, N-acetyl partial)",RGS4 residues 19-end,fluorescence imaging of beads,peptide,,binding,binds
B8 (Rag2 1-387),Rag1,pull-down,,,binding,binds
"KLCHGYCH-NH2 (designed peptide; disulfide 3-7; also: on OBOC bead: half N-acetylated, half free N-terminus; half N-acetyl, half free N-terminus/C-amide/cyclic disulfide Cys3-Cys7)",RGS4 residues 19-end,fluorescence imaging of beads,peptide,,binding,binds
LHNHYT,,,"peptide, human polyclonal IgM RF ABR","concentration not given, 5 µg/mL mAb II-481 coated, added: RF at 50% max binding concentration",inhibition,0%
B9 (pum 1-378),CNOT1/CNOT2/CNOT3/CNOT10/CNOT11/CNOT7/CNOT6/CNOT9 CCR4-NOT complex,pull-down,,,binding,binds
"YWCKGLCK (designed peptide; half N-acetyl, half free N-terminus/C-amide/cyclic disulfide Cys3-Cys7)",RGS4 residues 19-end,fluorescence imaging of beads,peptide,,binding,binds

# For quick reference, copied from above:
Substance,tested on,test,test system,setting,endpoint,result
B2 (PPP1R15B 636-698),"PPP1CA 7-330 (Homo sapiens, UniProt P62136)",MST,,"pH 7.4, added: Mn2+ 2 mM",binding,binds
"KLCHGYCH-NH2 (designed peptide; disulfide 3-7; also: on OBOC bead: half N-acetylated, half free N-terminus; half N-acetyl, half free N-terminus/C-amide/cyclic disulfide Cys3-Cys7)",RGS4 residues 19-end,fluorescence imaging of beads,peptide,,binding,binds
"KHCYGFCK-NH2 (designed peptide; disulfide 3-7; also: on OBOC bead: half N-acetylated, half free N-terminus; C-amide, Cys3-Cys7 disulfide, N-acetyl partial)",RGS4 residues 19-end,fluorescence imaging of beads,peptide,,binding,binds
